Assay results gathered from unrelated publications.
A part holds a random share of what one study measured. Changes are numbered by the printed parent chain.

Block 1
Target: CCNA1, cyclin fold, Cln2 fusion (human)
Method: yeast growth competition, sequencing
Sample: yeast
Notes: weak parent motif
Reference: not given
Direction: higher = stronger binding
Starting sequence: CDC6 docking peptide (human); TLKGRRLVFDNQL; partner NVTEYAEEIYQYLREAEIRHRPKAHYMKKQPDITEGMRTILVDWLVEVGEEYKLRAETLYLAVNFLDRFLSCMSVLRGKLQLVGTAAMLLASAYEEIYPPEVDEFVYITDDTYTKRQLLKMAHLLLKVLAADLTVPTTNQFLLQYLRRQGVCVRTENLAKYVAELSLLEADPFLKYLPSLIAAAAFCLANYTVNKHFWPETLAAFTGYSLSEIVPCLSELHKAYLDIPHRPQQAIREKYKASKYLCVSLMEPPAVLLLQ
For `TLKGARLVFDNQL [R5A]`, “normalised enrichment score” read 0.382.
`TLKERRLVFDNQL [G4E]` — result for “normalised enrichment score”: -0.0964.
For `TLKGRRLVFDNQF [L13F]`, “normalised enrichment score” read 0.499.
For `TLKGRRLVFDNQE [L13E]`, “normalised enrichment score” read 0.241.
`TLKGRRLVFDNQD [L13D]`: “normalised enrichment score” 0.0914.
For `TLKGRRLSFDNQL [V8S]`, “normalised enrichment score” read 0.139.
For `TLKGRRLVFDNLL [Q12L]`, “normalised enrichment score” read -0.00975.
`DLKGRRLVFDNQL [T1D]` — result for “normalised enrichment score”: -0.0955.
`TLKGRRLVFNNQL [D10N]`: “normalised enrichment score” 0.601.
For `TLKGRRLVFHNQL [D10H]`, “normalised enrichment score” read 0.156.

Block 2
Target: Histone acetyltransferase KAT6A, winged helix 2, GST fusion (KAT6A, Homo sapiens, UniProt Q92794, residues 85-181)
Method: protein binding microarray
Molecule type: double-stranded DNA, one strand shown
Sample: in vitro
Tested at: not given
Notes: 8-mer, flanks averaged, mean of 2 arrays, mostly near background
Reference: not given
Direction: higher = stronger binding
Residues (chain): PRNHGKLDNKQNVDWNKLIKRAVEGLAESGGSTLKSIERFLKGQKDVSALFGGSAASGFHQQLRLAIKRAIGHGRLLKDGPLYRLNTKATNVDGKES
The E-score of `ACCCAAAA` is reported as 0.148.
`GTCGGGAA` gave an E-score of 0.108.
For `AATCAGCC`, the E-score was -0.0817.
The E-score of `ACTCCGGC` is reported as 0.181.
`ACTCATCG` has an E-score of -0.0348.
For `GACGCACA`, the E-score was 0.018.
With `CGAGGACC` the E-score was -0.0546.
`CCAGTACA` gave an E-score of -0.0819.
`CAGGAGGG` gave an E-score of 0.118.
The E-score of `CTTTCCTC` is reported as 0.117.

Block 3
Target: Phosphate system positive regulatory protein PHO4, full length, GST-tagged (PHO4, Saccharomyces cerevisiae, UniProt P07270, residues 1-312)
Method: competition protein-binding microarray
Molecule type: double-stranded DNA, one strand shown
Sample: in vitro
Tested at: 2 µM
Notes: whole 60-bp probe, lowest competitor level
With: Cbf1 competitor, 0.05 µM
Direction: higher = stronger binding
Constant ends, left off below: … GTCTTGATTCGCTTGACGCTGCTG
Target sequence (chain): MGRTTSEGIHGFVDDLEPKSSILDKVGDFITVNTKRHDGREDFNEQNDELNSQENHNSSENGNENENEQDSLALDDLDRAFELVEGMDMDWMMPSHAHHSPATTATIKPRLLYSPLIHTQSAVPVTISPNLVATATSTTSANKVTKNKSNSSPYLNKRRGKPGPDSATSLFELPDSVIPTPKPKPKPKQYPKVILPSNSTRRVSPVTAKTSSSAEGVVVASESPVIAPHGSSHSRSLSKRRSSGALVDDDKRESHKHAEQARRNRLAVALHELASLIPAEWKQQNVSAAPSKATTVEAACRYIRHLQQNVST
The fluorescence intensity of `AGTCTCTTCGGGAAGTACATGACAGGGTGGTATATA` is reported as 4760 a.u.
The fluorescence intensity of `CATGCCGAGAAGTTACTCGTGCAAATCACTACGATA` is reported as 7130 a.u.
`AAGTAGGAGTATAAGAGCGTGGGTAAACACAAAATG` gave a fluorescence intensity of 8320 a.u.
`CGGGGTTAAGTTTGGTATGTGGGTGGCTTGCAGCAG` has a fluorescence intensity of 5120 a.u.
For `CCGCCGCTGCTTTTGCACGTGAGTCCCGCGGATTTT`, the fluorescence intensity was 15100 a.u.
`AAAGCGGTAATTTGTCACGCGACTTCACATATCTAT` gave a fluorescence intensity of 7530 a.u.
With `CCGGTTTAACCCCCCGGCGTGCTTTGGTAGGTGCCC` the fluorescence intensity was 6840 a.u.
`TCTAATGTTATTCGTCACGTCGATCTGACATATATC` gave a fluorescence intensity of 4530 a.u.

Other studies, line by line
`PhoQ, residues 284 288 289 292 302 303 SLKLQV` gave a fold induction of 8.41 (PhoP, residues 12 14 15 18 19 NFCKL (Escherichia coli, UniProt P23836); Sort-seq, item: YFP reporter; E. coli; PhoQ-PhoP variant library, with: 10 µM Mg2+; reference: high Mg2+ state, higher = stronger signaling).
